Results collected from several papers.
Parts stem from different laboratories: compare values within a part only. Several values in a cell are separate wells, animals, samples, runs or records.
Chain of UniProt P42680 (whole entry, looked up): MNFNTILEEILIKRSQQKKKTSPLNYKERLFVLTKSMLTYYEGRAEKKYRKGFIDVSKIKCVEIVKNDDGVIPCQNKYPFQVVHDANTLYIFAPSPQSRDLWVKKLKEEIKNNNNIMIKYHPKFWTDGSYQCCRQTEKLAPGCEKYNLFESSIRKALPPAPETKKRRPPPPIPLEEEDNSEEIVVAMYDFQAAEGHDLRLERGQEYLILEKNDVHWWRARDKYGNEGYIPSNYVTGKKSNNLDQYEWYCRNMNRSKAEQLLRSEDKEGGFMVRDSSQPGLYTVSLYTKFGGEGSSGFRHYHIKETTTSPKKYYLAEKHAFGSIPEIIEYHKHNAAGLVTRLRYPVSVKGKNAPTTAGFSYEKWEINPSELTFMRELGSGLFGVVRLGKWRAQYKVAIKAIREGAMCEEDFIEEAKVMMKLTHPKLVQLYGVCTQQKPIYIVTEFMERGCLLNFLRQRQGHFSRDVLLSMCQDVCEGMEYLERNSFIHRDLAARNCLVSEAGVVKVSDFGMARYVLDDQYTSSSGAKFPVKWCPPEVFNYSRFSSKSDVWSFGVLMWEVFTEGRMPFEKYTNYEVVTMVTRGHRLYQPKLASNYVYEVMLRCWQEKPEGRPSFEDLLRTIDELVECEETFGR

Study 1
Target: HLA class I histocompatibility antigen, A alpha chain, allele A*69:01 (Homo sapiens, UniProt P04439)
Effect on: peptide-MHC binding
Molecule type: peptide
Tested at: concentration not given
| Sequence | binding |
| --- | --- |
| FLGRIWPS | inactive |
| DAAVVFPPV | active |
| FLGKIWSS | inactive |

Single results of other studies
| SMILES | target or system | assay | setting | how to read | measurement | result |
| --- | --- | --- | --- | --- | --- | --- |
| CCOC(=O)C1(c2ccccc2)CCN(CCC(C#N)(c2ccccc2)c2ccccc2)CC1 | Sarcocystis neurona | parasite growth | 10 µM, 96 h, second screen | relative to: untreated | log2 fold change | 0.0334 |
| CNC1(C)C2CCC(C2)C1(C)C (centres unmarked) | HEK-293T/ACE2 | Hoechst nuclei count | concentration not given, 16 (unit not given) | relative to: vehicle | viability | 103% |
| CN[C@@H]1C[C@H]2O[C@@](C)([C@@H]1OC)n1c3ccccc3c3c4c(c5c6ccccc6n2c5c31)C(=O)NC4 | TEC (Homo sapiens, UniProt P42680) | enzyme activity, inhibitor | 0.5 µM | relative to: control | remaining activity | 91.1% and 106% |
| C[C@]12CCC(=O)C[C@@H]1CC[C@@H]1[C@@H]2CC[C@@]2(C)[C@H]1CC[C@]2(C)O | Sarcocystis neurona | parasite growth | 10 µM, 96 h, second screen | relative to: untreated | log2 fold change | -0.0036 |
| CC(=O)OCC(=O)[C@@]1(OC(C)=O)[C@@H](C)C[C@H]2[C@@H]3C[C@H](F)C4=CC(=O)C=C[C@]4(C)[C@@]3(F)[C@@H](O)C[C@@]21C | HEK-293T/ACE2 | Hoechst nuclei count | concentration not given, 16 (unit not given) | relative to: vehicle | viability | 106% |

For quick reference, copied from above (single results of other studies):
| SMILES | target or system | assay | setting | how to read | measurement | result |
| --- | --- | --- | --- | --- | --- | --- |
| C[C@]12CCC(=O)C[C@@H]1CC[C@@H]1[C@@H]2CC[C@@]2(C)[C@H]1CC[C@]2(C)O | Sarcocystis neurona | parasite growth | 10 µM, 96 h, second screen | relative to: untreated | log2 fold change | -0.0036 |
